Experimental data pooled from the literature.
Each numbered part is a random draw from the data of one study; scales do not carry over between parts. Positions count from the first letter of the parent shown.

Series 1
Target: Histone acetyltransferase KAT6A, winged helix 2, GST fusion (KAT6A, Homo sapiens, UniProt Q92794, residues 85-181)
Technique: protein binding microarray
Molecule type: double-stranded DNA, one strand shown
Sample: in vitro
Concentration: not given
Notes: 8-mer, flanks averaged, mean of 2 arrays, mostly near background
Relative to: not given
Reading: higher = stronger binding
Endpoint: E-score
Construct (chain): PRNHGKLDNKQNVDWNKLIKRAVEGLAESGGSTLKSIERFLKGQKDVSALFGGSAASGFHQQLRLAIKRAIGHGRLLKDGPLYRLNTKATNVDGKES
CTCTTACC: 0.00802
ACGCCAAA: -0.00378
GACGTATC: -0.133
AACCTGAT: -0.101
CCTTTGAC: -0.219
TATCGAGA: 0.00896
CTCGTTTC: 0.0918
AACTAATG: 0.0727
AACACGGC: 0.0843
AGCGATAC: 0.0122

Series 2
Target: CCND1, cyclin fold, Cln2 fusion (human)
Technique: yeast growth competition, sequencing
Sample: yeast
Notes: weak parent motif
Relative to: not given
Reading: higher = stronger binding
Endpoint: normalised enrichment score
Parent: FOXM1 docking peptide (human); PHLARPIKVESPP; partner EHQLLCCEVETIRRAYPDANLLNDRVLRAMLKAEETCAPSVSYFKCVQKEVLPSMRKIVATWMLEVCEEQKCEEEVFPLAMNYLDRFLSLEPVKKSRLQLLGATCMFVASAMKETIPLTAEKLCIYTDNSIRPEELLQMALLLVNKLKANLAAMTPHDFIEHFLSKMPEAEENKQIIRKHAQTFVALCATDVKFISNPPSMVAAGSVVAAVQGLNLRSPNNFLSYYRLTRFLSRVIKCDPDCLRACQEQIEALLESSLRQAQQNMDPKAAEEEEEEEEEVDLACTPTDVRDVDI
PHLARAIKVESPP [P6A]: -0.0424
PHLARPIKVESPA [P13A]: 0.785
PHLARPIKVASPP [E10A]: 0.418
AHLARPIKVESPP [P1A]: 0.43
PHLARPIAVESPP [K8A]: 0.279
PHLARPAKVESPP [I7A]: 0.186

Series 3
Target: RNA binding protein fox-1 homolog 2, RRM domain, GST-SBP tag (RBFOX2, Homo sapiens, UniProt O43251-10, residues 100-194)
Technique: RNA Bind-n-Seq
Molecule type: RNA
Sample: in vitro
Concentration: 365 nM
Notes: natural RNA segment, single round, ends assumed
Relative to: no-protein control
Reading: higher = stronger binding
Endpoint: RBNS enrichment (R)
All sequences stand within: GGGAGUUCUACAGUCCGACGAUC … UGGAAUUCUCGGGUGCCAA
Target sequence (chain): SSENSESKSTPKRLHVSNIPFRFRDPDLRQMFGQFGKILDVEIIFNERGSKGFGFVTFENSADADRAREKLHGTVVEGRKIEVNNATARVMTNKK
UCCAUUAUCUUUUUGGACACAGUGAAUAUGUUUUUUAGCUAAAAAUGUCCUUGGAAACAUAAAUGCCUGCCAAUAACAUGGAAUAUUGAAUUCGGGCAAUGUGAAUUGAU: 0.687
GGGCCAGAGUAAGUGCAAGUCAUGGAGUGCAGGCAGAGGGGUCCAUGGCUUCCCCAGCCCAGGGAGGGUAUCAGUAUCAUUCAUUCUCUCUCCCCUCACUGGUAUGGGUU: 0.529
UUUUUUGCCAUUCCGGAAGCAAUCCAUUUUUAUUCACUUGUGUGUCAUGUAAUGGUCUUUGGCAGGAGAGAGCACUGAGUCAUUGCUGGAGUUCAGUUCAACAGAGCUGC: 0.351
AGGAUCUGAGAGGAGAGGGUCCUUGCUCCAUGCAUGAGGACAUCCAUCCCACCCACUGCCUCUGAAGAGCUGUAGAGCAACCUGCUUUUGGCAUGGGUGGAUGGAUUUUU: 16.5
AGCCGCUCAUGGACCAUUAGACUUGAGAAGACGACCCACGUGGUGACUGCAAAGCCCUGGGUACUUGCCUUCAUGUUCUGGUUUGGUUUUCCCUUUUUCUGCUGCUCUUG: 1.93
UUAAUGCUUAGGAAGCCCAUUUGCAAACACUCAGUGAAGAGACACUUAAGUUUAAAAUAAAGCUUUUUAUACUGUAGCUUGAACUGUUUACCAUACAUUCUUUUGUAGUA: 0.544
GUGAGAUUUUCAUCCAAAGCCACACUCCUAGCCUAAGGCACUUCAUCUUUACGAUAUAAAAUGAUGGCUCUCAAAUGAUUUUUCCAUCCAUUGUCCCGAUCCAGCUAUCA: 0.301
CACUGAGGCUUCGUCCUUAUAGUAGUCAGGAGCAGGCGAUUGAAGUAAUUCUGUCCUGCGGGGUUCAGCAUCAUGCACGUUCCCCCUGGGCCAUUCUCUGAUGCAGGGCA: 0.577
AGAACCAUUUUUAUGUAAUCUGAUUUGAAUGUUAUAGUUGAUAAUAAUAAAAUCACUUACUUGGUUGCUAUUUAGUGUUGCAUUUAAUGAUAAAAAACAGACCCUGUGUA: 1.25
GGAGUGCAGUGGCAUGAUCUCAGCCACUGCAACCUCUGCCUCCCGGGUUCAAGCGAUUCUUCUGCCUCAGCCUCCCAAGUAGUUGGGAUUACAGACAUGUGCCACCACGC: 0.235
GAGAAAACUAACACAGCAGUGGCAAUGCUGGGAAUGGCCAACAGGCUUGGAAUUCAACUCAGUUUAGCACCAAAGCCAGUGCUAUUAAGACCUGAAGUUCAACAGUGGAU: 0.423
CCUGUAUCCUGUGAGGCCUGGAGCUUUUCAAACACUAGAGGGGGCCUUAGAGUAAGUGGAAAGGACUUCUAAAAUGUGUGUGUGCUUUGCCUUCCAGAAAGCCAUCUUUG: 0.734

Single results of other studies
PhoQ, residues 284 288 289 292 302 303 NLAAMI — fold induction (PhoP, residues 12 14 15 18 19 TTLRV (Escherichia coli, UniProt P23836); Sort-seq, item: YFP reporter; E. coli; PhoQ-PhoP variant library, with: 10 µM Mg2+; relative to: high Mg2+ state, higher = stronger signaling): 11.1

Repeated from above (series 3):
UUAAUGCUUAGGAAGCCCAUUUGCAAACACUCAGUGAAGAGACACUUAAGUUUAAAAUAAAGCUUUUUAUACUGUAGCUUGAACUGUUUACCAUACAUUCUUUUGUAGUA: 0.544
GUGAGAUUUUCAUCCAAAGCCACACUCCUAGCCUAAGGCACUUCAUCUUUACGAUAUAAAAUGAUGGCUCUCAAAUGAUUUUUCCAUCCAUUGUCCCGAUCCAGCUAUCA: 0.301
CACUGAGGCUUCGUCCUUAUAGUAGUCAGGAGCAGGCGAUUGAAGUAAUUCUGUCCUGCGGGGUUCAGCAUCAUGCACGUUCCCCCUGGGCCAUUCUCUGAUGCAGGGCA: 0.577
